{"data": "Earlier results, collected from citations in different studies", "note": "Numbered parts are unrelated; values within a part may stem from several laboratories. ± marks the error that the study gave.", "sequence of UniProt P21553 (whole entry, looked up)": "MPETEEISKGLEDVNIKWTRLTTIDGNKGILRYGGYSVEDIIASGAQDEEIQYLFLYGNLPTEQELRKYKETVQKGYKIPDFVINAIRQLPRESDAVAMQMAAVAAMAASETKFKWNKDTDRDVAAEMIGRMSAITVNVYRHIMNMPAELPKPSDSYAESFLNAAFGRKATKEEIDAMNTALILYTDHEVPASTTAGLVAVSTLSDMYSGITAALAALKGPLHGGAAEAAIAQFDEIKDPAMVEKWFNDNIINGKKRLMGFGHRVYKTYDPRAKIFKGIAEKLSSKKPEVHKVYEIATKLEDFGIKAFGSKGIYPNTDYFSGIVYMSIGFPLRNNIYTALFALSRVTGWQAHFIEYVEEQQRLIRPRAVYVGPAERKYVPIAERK", "sequence of UniProt P35372 (whole entry, looked up)": "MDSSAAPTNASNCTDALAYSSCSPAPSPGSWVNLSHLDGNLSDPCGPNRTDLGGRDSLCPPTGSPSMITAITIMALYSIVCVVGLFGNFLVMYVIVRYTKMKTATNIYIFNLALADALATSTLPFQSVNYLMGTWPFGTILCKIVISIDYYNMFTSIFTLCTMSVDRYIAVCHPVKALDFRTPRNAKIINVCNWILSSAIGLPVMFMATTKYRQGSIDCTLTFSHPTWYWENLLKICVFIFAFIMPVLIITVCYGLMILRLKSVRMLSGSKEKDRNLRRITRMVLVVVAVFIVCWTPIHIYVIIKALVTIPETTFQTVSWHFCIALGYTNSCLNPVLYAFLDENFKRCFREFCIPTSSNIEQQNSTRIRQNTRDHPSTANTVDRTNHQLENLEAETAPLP", "sequence of UniProt O14976 (whole entry, looked up)": "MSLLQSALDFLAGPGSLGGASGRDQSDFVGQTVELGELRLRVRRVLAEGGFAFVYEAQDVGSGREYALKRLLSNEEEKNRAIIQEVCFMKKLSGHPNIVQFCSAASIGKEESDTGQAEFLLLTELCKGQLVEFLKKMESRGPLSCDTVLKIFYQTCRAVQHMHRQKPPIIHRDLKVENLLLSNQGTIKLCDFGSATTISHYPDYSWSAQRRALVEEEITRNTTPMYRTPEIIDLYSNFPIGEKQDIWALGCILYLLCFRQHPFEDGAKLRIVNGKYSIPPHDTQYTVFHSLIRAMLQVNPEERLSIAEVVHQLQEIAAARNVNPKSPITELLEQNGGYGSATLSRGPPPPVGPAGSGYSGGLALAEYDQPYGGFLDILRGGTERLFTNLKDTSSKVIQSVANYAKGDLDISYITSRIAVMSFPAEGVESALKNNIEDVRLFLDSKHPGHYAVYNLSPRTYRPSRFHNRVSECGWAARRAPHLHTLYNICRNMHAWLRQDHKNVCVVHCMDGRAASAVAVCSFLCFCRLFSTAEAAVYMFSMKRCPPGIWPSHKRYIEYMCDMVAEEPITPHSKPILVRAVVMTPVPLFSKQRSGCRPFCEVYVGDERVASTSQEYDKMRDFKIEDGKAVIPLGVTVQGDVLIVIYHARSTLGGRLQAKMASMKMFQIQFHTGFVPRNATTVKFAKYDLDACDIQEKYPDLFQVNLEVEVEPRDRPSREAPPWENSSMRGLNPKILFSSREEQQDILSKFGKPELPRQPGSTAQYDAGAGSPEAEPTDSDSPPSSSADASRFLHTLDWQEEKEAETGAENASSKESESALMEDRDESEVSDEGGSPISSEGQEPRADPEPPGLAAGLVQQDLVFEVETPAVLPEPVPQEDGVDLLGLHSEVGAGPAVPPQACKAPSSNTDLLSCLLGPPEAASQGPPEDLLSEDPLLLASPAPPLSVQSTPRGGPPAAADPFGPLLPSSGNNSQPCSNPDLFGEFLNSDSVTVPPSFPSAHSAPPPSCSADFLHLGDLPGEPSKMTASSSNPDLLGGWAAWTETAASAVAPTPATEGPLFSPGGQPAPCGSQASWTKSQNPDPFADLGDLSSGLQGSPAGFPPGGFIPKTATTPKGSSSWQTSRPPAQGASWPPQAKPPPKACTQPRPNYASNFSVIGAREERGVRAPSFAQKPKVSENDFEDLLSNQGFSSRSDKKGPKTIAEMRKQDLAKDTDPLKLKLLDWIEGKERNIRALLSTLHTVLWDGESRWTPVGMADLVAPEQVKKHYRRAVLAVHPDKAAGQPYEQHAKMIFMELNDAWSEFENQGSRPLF", "sequence of UniProt A2RJT9 (whole entry, looked up)": "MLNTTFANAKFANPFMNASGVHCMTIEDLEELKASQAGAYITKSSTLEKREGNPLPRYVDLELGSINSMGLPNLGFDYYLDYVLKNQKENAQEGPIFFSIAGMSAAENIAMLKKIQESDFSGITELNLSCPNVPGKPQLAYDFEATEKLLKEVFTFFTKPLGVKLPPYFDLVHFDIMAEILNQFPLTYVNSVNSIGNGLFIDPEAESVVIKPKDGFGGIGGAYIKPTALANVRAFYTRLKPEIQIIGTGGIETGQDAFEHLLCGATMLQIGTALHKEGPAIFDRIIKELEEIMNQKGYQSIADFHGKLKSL", "sequence of UniProt P22002 (whole entry, looked up)": "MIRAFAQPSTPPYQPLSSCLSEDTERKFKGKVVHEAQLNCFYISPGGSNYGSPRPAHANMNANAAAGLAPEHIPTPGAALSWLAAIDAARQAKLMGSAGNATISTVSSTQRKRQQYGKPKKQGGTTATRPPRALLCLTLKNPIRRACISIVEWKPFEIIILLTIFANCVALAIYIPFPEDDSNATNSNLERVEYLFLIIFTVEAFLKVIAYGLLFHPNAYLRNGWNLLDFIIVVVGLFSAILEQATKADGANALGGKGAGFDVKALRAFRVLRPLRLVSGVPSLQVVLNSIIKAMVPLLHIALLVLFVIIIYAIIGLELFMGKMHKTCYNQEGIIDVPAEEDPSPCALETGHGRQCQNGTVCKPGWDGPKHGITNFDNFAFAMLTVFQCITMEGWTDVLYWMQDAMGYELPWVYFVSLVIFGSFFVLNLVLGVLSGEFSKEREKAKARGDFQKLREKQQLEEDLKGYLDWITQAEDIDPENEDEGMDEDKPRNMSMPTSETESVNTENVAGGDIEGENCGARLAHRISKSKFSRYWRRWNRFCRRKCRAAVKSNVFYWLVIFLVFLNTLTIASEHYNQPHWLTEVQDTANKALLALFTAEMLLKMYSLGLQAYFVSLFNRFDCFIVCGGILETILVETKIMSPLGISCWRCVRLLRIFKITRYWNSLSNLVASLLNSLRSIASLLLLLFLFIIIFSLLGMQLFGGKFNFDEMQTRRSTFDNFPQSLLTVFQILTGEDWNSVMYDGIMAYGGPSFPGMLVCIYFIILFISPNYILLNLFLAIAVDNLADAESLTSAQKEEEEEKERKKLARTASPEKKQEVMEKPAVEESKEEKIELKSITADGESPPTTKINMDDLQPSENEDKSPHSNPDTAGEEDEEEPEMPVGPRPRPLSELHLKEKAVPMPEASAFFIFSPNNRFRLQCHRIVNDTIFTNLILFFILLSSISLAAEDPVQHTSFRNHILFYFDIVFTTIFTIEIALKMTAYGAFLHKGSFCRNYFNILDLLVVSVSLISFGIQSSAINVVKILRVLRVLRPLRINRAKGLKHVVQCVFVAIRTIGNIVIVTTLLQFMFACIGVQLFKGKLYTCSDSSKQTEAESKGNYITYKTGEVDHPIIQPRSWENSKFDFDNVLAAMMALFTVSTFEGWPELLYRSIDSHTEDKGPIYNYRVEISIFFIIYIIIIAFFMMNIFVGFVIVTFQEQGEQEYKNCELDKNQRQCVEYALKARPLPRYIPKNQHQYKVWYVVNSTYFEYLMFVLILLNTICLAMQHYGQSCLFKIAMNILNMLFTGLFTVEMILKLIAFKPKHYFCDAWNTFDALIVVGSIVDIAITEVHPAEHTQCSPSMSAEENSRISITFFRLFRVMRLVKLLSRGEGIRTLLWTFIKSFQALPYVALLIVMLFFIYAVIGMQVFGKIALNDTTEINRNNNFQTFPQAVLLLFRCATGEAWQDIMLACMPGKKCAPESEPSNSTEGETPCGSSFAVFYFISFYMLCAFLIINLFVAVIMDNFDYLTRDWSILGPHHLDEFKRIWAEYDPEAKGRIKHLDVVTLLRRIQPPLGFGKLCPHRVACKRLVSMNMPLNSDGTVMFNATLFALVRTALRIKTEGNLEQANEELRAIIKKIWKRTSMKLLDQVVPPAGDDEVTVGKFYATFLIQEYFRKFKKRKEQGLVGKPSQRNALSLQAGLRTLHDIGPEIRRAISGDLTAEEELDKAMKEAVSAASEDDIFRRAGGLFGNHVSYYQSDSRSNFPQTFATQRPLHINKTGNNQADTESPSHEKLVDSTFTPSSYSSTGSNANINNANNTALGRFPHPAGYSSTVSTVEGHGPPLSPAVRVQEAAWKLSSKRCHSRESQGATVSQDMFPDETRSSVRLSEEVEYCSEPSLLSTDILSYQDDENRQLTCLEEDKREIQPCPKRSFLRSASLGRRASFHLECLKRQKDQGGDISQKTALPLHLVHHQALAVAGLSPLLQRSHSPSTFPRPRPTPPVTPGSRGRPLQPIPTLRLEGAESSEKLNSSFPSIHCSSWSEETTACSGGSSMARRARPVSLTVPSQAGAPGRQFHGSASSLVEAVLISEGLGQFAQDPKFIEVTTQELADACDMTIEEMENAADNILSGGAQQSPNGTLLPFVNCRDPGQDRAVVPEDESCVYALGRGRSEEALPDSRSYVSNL", "sequence of UniProt O95749 (whole entry, looked up)": "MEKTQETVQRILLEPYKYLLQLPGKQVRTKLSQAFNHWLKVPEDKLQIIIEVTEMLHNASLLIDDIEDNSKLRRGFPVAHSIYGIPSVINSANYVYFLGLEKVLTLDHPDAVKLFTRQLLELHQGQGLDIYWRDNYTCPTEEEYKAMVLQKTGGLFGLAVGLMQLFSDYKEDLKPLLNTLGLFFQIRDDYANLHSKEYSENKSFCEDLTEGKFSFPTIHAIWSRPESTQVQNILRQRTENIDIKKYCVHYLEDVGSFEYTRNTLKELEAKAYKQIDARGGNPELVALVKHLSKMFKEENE"}
{"data": "Block 1", "target": "HLA class I histocompatibility antigen, A alpha chain, allele A*25:01 (Homo sapiens, UniProt P04439)", "observed": "peptide-MHC binding", "form": "peptide"}
{"Molecule": "AQSDFMSWV", "IC50 [µM]": "> 20"}
{"Molecule": "LQKIPLQWF", "IC50 [µM]": "> 20"}
{"Molecule": "PLFPGITRV", "IC50 [µM]": "> 20"}
{"Molecule": "DMYFCHFYK", "IC50 [µM]": "> 20"}
{"Molecule": "ARLSSPIVL", "IC50 [µM]": "> 20"}
{"Molecule": "RQSSGSSSSGF", "IC50 [µM]": "> 20"}
{"Molecule": "RSVWIPGRW", "IC50 [µM]": "> 20"}
{"Molecule": "EGFDPRALI", "IC50 [µM]": "> 20"}
{"Molecule": "RKLTNPANK", "IC50 [µM]": "> 20"}
{"Molecule": "ETIEILRNY", "IC50 [µM]": 0.012}
{"Molecule": "WLYDLWGQL", "IC50 [µM]": "> 20"}
{"Molecule": "PSYQLPLPM", "IC50 [µM]": "> 20"}
{"Molecule": "LNWFEIWIV", "IC50 [µM]": "> 20"}
{"Molecule": "FPHTELANL", "IC50 [µM]": "> 20"}
{"Molecule": "RYSHWTKL", "IC50 [µM]": "> 20"}
{"Molecule": "YPDPVIKV", "IC50 [µM]": "> 20"}
{"Molecule": "FLRKNQRAL", "IC50 [µM]": "> 20"}
{"Molecule": "MQIDGGEGV", "IC50 [µM]": "> 20"}
{"Molecule": "FPNLQVDPT", "IC50 [µM]": "> 20"}
{"Molecule": "RTFSILNRK", "IC50 [µM]": "> 20"}
{"Molecule": "SVIDHIHYM", "IC50 [µM]": 0.014}
{"Molecule": "YQIEGAWRA", "IC50 [µM]": "> 20"}
{"Molecule": "EIKDRILSY", "IC50 [µM]": 0.042}
{"Molecule": "RRRPVTRPL", "IC50 [µM]": "> 20"}
{"Molecule": "YMKFFGNFK", "IC50 [µM]": "> 20"}
{"data": "Other studies, line by line"}
{"SMILES": "C=C(C)[C@@H]1CCC(C)=C[C@H]1c1c(O)cc(CCCCC)cc1O", "test system": "rat, male", "conditions": "intraperitoneal, minimal motor impairment", "endpoint": "TD50", "value": "> 500 mg/kg"}
{"SMILES": "C[n+]1cn(C2OC(COP(O)(=S)OP(=O)(O)OP(=O)(O)OP(O)(=S)OCC3OC(n4c[n+](C)c5c(=O)[nH]c(N)nc54)C(O)C3O)C(O)C2O)c2nc(N)[nH]c(=O)c21 (single isomer, unassigned)", "tested on": "Schizosaccharomyces pombe Dcp2", "assay": "decapping activity, inhibitor", "endpoint": "Ki", "value": "121 ± 16 µM"}
{"SMILES": "CN1C(=O)CN=C(c2ccccc2F)c2cc([N+](=O)[O-])ccc21", "tested on": "GABAA-a1", "assay": "binding, ligand binding", "endpoint": "Kd", "value": "0.0014 µM"}
{"SMILES": "CC(C)[C@@H](CN1CC[C@@](C)(c2cccc(O)c2)[C@@H](C)C1)NC(=O)[C@@H]1Cc2ccc(O)cc2CN1C", "tested on": "delta opioid receptor (human)", "assay": "antagonist", "conditions": "added: DPDPE", "endpoint": "Ke", "value": "491 ± 120 nM"}
{"SMILES": "C[C@@H]1O[C@@H](O[C@H]2[C@H](Oc3cc(O)c4c(=O)cc(-c5ccc(O)cc5)oc4c3)O[C@H](CO)[C@@H](O)[C@@H]2O)[C@H](O)[C@H](O)[C@H]1O", "tested on": "3CL protease", "assay": "enzyme activity, inhibitor", "endpoint": "IC50", "value": "27 µM"}
{"SMILES": "COc1ncccc1-c1cnn2ccc(N3CCN(C(=O)OC(C)C)CC3)nc12", "tested on": "GAK (Homo sapiens, UniProt O14976)", "conditions": "literature value", "endpoint": "IC50", "value": "0.32 µM"}
{"SMILES": "CC(NC(C)(C)C)C(=O)c1cccc(Cl)c1 (centres unmarked)", "tested on": "nicotinic acetylcholine receptor α4β2", "assay": "antagonist", "endpoint": "IC50", "value": "17.8 µM"}
{"SMILES": "CC(C)=CCCC(C)=CCCn1cc(CC(P(=O)([O-])[O-])P(=O)([O-])[O-])nn1.[Na+].[Na+].[Na+].[Na+]", "assay": "protein geranylgeranylation", "test system": "cells", "endpoint": "lowest active concentration", "value": "50 nM"}
{"SMILES": "Nc1nnc(-c2cccc(Cl)c2Cl)c(N)n1", "test system": "male rat", "conditions": "i.p., MES seizure test", "endpoint": "protective index", "value": 8.5}
{"SMILES": "CC(C)C[C@H](NC(=O)CNC(=O)c1cc(Cl)ccc1Cl)B(O)O", "test system": "blood", "endpoint": "blood to plasma ratio", "value": 2.38}
{"SMILES": "O=c1c(O)c(-c2ccc(O)cc2)oc2c(O)c(O)cc(O)c12", "tested on": "3CL protease", "assay": "enzyme activity, inhibitor", "endpoint": "IC50", "value": "33 µM"}
{"SMILES": "CC(C)N(CCC(C(N)=O)(c1ccccc1)c1ccccn1)C(C)C (centres unmarked)", "test system": "rat, plasma", "endpoint": "fraction unbound", "value": 0.61}
{"SMILES": "CC(C)=CCCC(C)=CCn1cc(C=C(P(=O)(O)O)P(=O)(O)O)nn1", "tested on": "GGPS1 (Homo sapiens, UniProt O95749)", "endpoint": "IC50", "value": "2.7 ± 1.6 µM"}
{"SMILES": "CC(C)(COP(=O)(O)OP(=O)(O)OCC1OC(n2cnc3c(N)ncnc32)C(O)C1OP(=O)(O)O)C(O)C(=O)NCCC(=O)NCCSC(=O)CC(O)(CC(=O)O)C(=O)O (centres unmarked)", "tested on": "gltA (Thermoplasma acidophilum, UniProt P21553)", "assay": "substrate", "conditions": "saturating, pH 8, 20 °C", "endpoint": "hydrolysis rate constant", "value": "9.2 s⁻¹"}
{"SMILES": "O=C(O)c1cc(=O)[nH]c(=O)[nH]1", "tested on": "Dihydroorotate dehydrogenase A (fumarate) (pyrDA, Lactococcus lactis subsp. cremoris, UniProt A2RJT9)", "test system": "Lactococcus lactis, wild type", "conditions": "25 °C", "endpoint": "Kd", "value": "13.1 ± 0.7 µM"}
{"SMILES": "CC[C@H]1OC(=O)[C@H](C)[C@@H](O[C@H]2C[C@@](C)(OC)[C@@H](O)[C@H](C)O2)[C@H](C)[C@@H](O[C@@H]2O[C@H](C)C[C@H](N(C)C)[C@H]2O)[C@](C)(OC)C[C@@H](C)C(=O)[C@H](C)[C@@H](O)[C@]1(C)O", "test system": "human", "conditions": "added: ritonavir", "scale": "baseline: with over without ritonavir", "endpoint": "AUC(0-t) ratio", "value": 1.86}
{"SMILES": "COc1ccc(NC(=O)N2CCCCN3[C@H](CN(C)C)[C@H](c4ccc(C#Cc5ccccc5)cc4)[C@@H]3C2)cc1", "tested on": "Plasmodium falciparum cytosolic PheRS", "endpoint": "IC50", "value": "0.023 µM"}
{"SMILES": "O=C(O)CC(=O)C(=O)O", "tested on": "Thermoplasma acidophilum citrate synthase W17F/W115F/W245F", "assay": "fluorescence titration", "conditions": "20 °C, unliganded enzyme", "endpoint": "Kd", "value": "1.2 µM"}
{"SMILES": "CC1(C)NC(=O)C(Cc2ccc(O)cc2)NC(=O)CNC(=O)C(Cc2ccc3ccccc3c2)NC(=O)C(CCCN=C(N)N)NC1=O (centres unmarked)", "tested on": "human CXCR4 Y45A mutant", "endpoint": "EC50", "value": "46 µM"}
{"SMILES": "C[C@@H](NC(=O)[C@@H](N)Cc1ccc(O)cc1)C(=O)NCC(=O)N(C)[C@@H](Cc1ccccc1)C(=O)NCCO", "tested on": "OPRM1 (Homo sapiens, UniProt P35372)", "assay": "binding", "endpoint": "Hill coefficient", "value": 0.6}
{"SMILES": "CCN(CC)C(=O)[C@@H]1C=C2c3cccc4[nH]cc(c34)C[C@H]2N(C)C1", "tested on": "HEK293, recombinant", "assay": "binding, radioligand binding", "endpoint": "Kd", "value": "0.0015 µM"}
{"SMILES": "CCOC(=O)C1=C(C)NC(C)=C(C(=O)OC)C1c1cccc([N+](=O)[O-])c1 (centres unmarked)", "tested on": "Cacna1c (Rattus norvegicus, UniProt P22002)", "endpoint": "Hill coefficient", "value": 0.9}
{"SMILES": "COc1cnc(-n2cnc(C)n2)c2[nH]cc(C(=O)C(=O)N3CCN(C(=O)c4ccccc4)CC3)c12", "test system": "human", "conditions": "dose not given, repeated dosing", "endpoint": "time to steady state", "value": "~3 days"}
{"SMILES": "CCCCCCCCCCCCCC(=O)O[C@@H]1[C@@H](C)[C@@]2(O)[C@@H](C=C(CO)C[C@]3(O)C(=O)C(C)=C[C@@H]23)[C@@H]2C(C)(C)[C@]12OC(C)=O", "tested on": "phorbol ester receptor", "assay": "radioligand binding", "endpoint": "Ki", "value": "0.00059 µM"}
{"SMILES": "COC(=O)[C@@H]1[C@H]2C[C@H]3c4[nH]c5ccccc5c4CCN3C[C@@H]2CC[C@@H]1O", "tested on": "ADRA2A (Homo sapiens, UniProt P08913)", "endpoint": "Hill coefficient", "value": 0.9}
{"note": "Repeated from above (other studies, line by line):"}
{"SMILES": "C[n+]1cn(C2OC(COP(O)(=S)OP(=O)(O)OP(=O)(O)OP(O)(=S)OCC3OC(n4c[n+](C)c5c(=O)[nH]c(N)nc54)C(O)C3O)C(O)C2O)c2nc(N)[nH]c(=O)c21 (single isomer, unassigned)", "tested on": "Schizosaccharomyces pombe Dcp2", "assay": "decapping activity, inhibitor", "endpoint": "Ki", "value": "121 ± 16 µM"}
{"SMILES": "CN1C(=O)CN=C(c2ccccc2F)c2cc([N+](=O)[O-])ccc21", "tested on": "GABAA-a1", "assay": "binding, ligand binding", "endpoint": "Kd", "value": "0.0014 µM"}
{"SMILES": "CC(C)[C@@H](CN1CC[C@@](C)(c2cccc(O)c2)[C@@H](C)C1)NC(=O)[C@@H]1Cc2ccc(O)cc2CN1C", "tested on": "delta opioid receptor (human)", "assay": "antagonist", "conditions": "added: DPDPE", "endpoint": "Ke", "value": "491 ± 120 nM"}
{"SMILES": "C[C@@H]1O[C@@H](O[C@H]2[C@H](Oc3cc(O)c4c(=O)cc(-c5ccc(O)cc5)oc4c3)O[C@H](CO)[C@@H](O)[C@@H]2O)[C@H](O)[C@H](O)[C@H]1O", "tested on": "3CL protease", "assay": "enzyme activity, inhibitor", "endpoint": "IC50", "value": "27 µM"}
{"SMILES": "COc1ncccc1-c1cnn2ccc(N3CCN(C(=O)OC(C)C)CC3)nc12", "tested on": "GAK (Homo sapiens, UniProt O14976)", "conditions": "literature value", "endpoint": "IC50", "value": "0.32 µM"}
